Assay results gathered from unrelated publications.
Protocols differ between the studies behind these lines. ± marks the error that the study gave.
DRD3: D(3) dopamine receptor (DRD3, Homo sapiens, UniProt P35462)
Chain of UniProt P35462 (whole entry, looked up): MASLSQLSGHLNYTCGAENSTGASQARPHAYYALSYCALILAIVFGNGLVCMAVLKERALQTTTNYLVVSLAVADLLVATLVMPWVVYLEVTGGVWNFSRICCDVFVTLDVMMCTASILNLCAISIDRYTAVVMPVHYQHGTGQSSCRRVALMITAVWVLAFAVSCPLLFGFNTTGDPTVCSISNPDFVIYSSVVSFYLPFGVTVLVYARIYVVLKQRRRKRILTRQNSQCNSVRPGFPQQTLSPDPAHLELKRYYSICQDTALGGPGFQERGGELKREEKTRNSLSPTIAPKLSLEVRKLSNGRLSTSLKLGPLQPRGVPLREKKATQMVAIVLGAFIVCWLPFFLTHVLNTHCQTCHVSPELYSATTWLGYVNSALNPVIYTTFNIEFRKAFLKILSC
Accessory gene regulator protein C: Accessory gene regulator protein C (Staphylococcus epidermidis, UniProt Q8VSX2)
RXFP3: Relaxin-3 receptor 1 (RXFP3, Homo sapiens, UniProt Q9NSD7)
Chain of UniProt Q9NSD7 (whole entry, looked up): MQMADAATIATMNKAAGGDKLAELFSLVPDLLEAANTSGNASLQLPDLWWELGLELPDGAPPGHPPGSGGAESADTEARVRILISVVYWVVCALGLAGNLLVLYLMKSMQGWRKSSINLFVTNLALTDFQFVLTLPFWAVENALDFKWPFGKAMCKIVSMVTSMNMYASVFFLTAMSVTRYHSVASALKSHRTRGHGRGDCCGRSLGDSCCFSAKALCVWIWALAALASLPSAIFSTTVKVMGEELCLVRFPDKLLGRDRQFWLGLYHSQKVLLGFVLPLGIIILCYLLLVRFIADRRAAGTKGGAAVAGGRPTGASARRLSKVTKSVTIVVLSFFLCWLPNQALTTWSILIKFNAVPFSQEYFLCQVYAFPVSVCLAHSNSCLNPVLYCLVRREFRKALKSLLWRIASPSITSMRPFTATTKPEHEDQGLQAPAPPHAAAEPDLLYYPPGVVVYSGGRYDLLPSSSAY
Melanocortin receptor 4: Melanocortin receptor 4 (Mus musculus, UniProt P56450)
Chain of UniProt P56450 (whole entry, looked up): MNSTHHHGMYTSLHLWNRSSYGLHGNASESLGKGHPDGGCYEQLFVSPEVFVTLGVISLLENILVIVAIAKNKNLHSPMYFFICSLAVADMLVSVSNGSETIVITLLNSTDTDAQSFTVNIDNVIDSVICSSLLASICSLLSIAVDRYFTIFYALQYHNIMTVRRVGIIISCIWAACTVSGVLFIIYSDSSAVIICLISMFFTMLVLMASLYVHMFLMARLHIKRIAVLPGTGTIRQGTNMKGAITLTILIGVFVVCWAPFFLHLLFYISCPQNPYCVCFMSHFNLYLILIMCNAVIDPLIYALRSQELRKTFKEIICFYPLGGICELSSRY
Oprd1: Delta-type opioid receptor (Oprd1, Rattus norvegicus, UniProt P33533)
Chain of UniProt P33533 (whole entry, looked up): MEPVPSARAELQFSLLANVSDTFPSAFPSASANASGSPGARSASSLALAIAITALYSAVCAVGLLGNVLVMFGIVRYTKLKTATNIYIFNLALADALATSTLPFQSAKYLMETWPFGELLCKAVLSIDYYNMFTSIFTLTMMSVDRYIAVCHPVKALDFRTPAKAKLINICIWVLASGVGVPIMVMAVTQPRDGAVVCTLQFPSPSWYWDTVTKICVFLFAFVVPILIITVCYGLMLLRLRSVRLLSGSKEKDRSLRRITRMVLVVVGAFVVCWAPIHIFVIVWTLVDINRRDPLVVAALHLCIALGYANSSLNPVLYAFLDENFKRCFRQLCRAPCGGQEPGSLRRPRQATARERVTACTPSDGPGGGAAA
histidine kinase ComD: histidine kinase ComD (Streptococcus pneumoniae serotype 4, UniProt A0A0H2US84)
Chain of UniProt A7T1N0 (whole entry, unmodified, looked up): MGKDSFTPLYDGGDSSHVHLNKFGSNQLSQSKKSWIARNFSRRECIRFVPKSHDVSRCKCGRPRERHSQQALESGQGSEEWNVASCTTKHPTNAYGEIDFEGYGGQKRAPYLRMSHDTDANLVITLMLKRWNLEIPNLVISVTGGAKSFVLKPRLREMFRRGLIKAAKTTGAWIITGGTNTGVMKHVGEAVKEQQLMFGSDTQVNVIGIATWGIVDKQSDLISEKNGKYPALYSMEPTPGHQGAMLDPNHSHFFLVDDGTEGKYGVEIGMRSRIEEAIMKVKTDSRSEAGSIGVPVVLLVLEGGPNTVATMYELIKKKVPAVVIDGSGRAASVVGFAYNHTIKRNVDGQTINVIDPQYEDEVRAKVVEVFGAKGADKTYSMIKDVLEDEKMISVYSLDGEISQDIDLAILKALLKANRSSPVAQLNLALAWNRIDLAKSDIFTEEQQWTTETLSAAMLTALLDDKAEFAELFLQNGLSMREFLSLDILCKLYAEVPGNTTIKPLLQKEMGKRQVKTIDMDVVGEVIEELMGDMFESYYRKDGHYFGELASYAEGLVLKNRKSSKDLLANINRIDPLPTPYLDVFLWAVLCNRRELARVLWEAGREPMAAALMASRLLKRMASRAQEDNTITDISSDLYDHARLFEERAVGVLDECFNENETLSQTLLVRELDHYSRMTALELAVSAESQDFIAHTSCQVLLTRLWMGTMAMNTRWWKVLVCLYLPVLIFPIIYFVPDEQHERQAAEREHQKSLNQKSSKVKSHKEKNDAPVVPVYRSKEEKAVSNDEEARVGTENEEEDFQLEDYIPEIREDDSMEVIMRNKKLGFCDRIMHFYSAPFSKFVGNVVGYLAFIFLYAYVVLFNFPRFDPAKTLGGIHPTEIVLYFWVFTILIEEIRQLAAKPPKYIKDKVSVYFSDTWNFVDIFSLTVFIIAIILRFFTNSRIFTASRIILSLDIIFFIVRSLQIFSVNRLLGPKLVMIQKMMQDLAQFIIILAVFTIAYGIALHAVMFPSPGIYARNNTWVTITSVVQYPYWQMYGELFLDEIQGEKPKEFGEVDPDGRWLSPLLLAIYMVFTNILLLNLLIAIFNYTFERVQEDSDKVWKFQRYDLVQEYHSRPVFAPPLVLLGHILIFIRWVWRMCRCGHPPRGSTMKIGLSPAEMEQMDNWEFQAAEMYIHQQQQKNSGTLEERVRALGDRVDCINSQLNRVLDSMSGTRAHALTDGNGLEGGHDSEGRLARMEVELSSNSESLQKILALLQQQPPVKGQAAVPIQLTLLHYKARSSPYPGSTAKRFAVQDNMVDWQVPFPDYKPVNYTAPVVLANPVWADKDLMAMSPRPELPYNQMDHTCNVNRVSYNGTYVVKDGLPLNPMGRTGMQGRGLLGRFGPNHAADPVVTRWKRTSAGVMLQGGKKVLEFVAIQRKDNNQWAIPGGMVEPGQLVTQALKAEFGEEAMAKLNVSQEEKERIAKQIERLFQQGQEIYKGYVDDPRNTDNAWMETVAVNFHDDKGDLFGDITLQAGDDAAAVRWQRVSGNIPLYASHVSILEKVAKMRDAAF
Chain of UniProt Q96NY8 (whole entry, looked up): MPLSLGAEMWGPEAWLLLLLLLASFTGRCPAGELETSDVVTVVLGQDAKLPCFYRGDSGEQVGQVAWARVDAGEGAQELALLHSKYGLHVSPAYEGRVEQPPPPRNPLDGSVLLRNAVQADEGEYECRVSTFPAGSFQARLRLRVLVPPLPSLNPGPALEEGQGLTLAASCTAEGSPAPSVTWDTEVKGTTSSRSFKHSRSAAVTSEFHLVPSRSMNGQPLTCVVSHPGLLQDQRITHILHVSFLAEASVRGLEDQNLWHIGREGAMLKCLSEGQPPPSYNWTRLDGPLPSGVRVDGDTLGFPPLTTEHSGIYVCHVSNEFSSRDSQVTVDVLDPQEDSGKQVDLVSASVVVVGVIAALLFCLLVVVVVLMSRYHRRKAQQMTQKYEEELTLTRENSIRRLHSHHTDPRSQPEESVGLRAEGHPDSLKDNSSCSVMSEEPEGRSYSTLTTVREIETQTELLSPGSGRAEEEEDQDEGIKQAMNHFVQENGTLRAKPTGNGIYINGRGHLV
Chain of UniProt P50391 (whole entry, looked up): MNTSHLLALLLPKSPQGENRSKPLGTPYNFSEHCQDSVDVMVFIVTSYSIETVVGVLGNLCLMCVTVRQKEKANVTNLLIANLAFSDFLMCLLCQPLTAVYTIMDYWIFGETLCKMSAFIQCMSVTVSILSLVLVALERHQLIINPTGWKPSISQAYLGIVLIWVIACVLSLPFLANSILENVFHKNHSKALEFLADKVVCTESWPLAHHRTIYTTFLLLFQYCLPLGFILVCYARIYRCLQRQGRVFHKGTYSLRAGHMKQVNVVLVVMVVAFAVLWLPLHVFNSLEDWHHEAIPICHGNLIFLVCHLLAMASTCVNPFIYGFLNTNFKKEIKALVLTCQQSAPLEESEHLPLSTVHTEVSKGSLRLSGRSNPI
Chain of UniProt P48546 (whole entry, looked up): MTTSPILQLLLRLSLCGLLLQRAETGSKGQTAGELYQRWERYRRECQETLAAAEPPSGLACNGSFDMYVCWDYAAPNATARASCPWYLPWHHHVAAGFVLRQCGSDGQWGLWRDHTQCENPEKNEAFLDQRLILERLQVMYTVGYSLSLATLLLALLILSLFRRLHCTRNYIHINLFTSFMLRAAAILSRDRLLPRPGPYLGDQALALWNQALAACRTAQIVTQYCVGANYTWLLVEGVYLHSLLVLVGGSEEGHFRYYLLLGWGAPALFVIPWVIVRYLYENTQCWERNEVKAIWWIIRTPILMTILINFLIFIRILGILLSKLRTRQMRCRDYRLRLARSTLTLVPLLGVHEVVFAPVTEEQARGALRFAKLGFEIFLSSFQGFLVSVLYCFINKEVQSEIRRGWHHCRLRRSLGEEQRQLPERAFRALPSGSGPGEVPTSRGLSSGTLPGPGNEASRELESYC

| SMILES | target | test | test system | setting | EC50 [µM] |
| --- | --- | --- | --- | --- | --- |
| CC(N)CCc1ccc(Cl)cc1 (racemic) | DRD3 | phosphorylation in cells, agonist, western blot | – | – | 0.0846 |
| CC[C@H](C)[C@H](NC(=O)[C@H](CO)NC(=O)[C@H](Cc1ccc(O)cc1)NC(=O)[C@H](CC(=O)O)NC(=O)[C@H](CO)NC(=O)[C@@H](NC(=O)[C@H](Cc1ccccc1)NC(=O)[C@@H](NC(=O)CNC(=O)[C@H](CCC(=O)O)NC(=O)C(C)(C)NC(=O)[C@@H](N)Cc1ccc(O)cc1)[C@@H](C)O)[C@@H](C)CC)C(=O)N[C@@H](C)C(=O)N[C@@H](CCSC)C(=O)N[C@@H](CC(=O)O)C(=O)N[C@@H](CCCCN)C(=O)N[C@H](C(=O)N[C@@H](CCCNC(=N)N)C(=O)N[C@@H](CCC(N)=O)C(=O)N[C@@H](CCC(N)=O)C(=O)N[C@@H](CC(=O)O)C(=O)N[C@@H](Cc1ccccc1)C(=O)N[C@H](C(=O)N[C@@H](CC(N)=O)C(=O)N[C@@H](Cc1c[nH]c2ccccc12)C(=O)N[C@@H](CC(C)C)C(=O)N[C@@H](CC(C)C)C(=O)N[C@@H](C)C(=O)N[C@@H](CCC(N)=O)C(=O)N[C@@H](CCCCN)C(=O)NCC(=O)N[C@@H](CCCCN)C(=O)N[C@@H](CCCCN)C(=O)N[C@@H](CC(N)=O)C(=O)N[C@@H](CC(=O)O)C(=O)N[C@@H](Cc1c[nH]c2ccccc12)C(=O)N[C@@H](CCCCN)C(=O)N[C@@H](Cc1c[nH]cn1)C(=O)N[C@@H](CC(N)=O)C(=O)N[C@H](C(=O)N[C@H](C(=O)N[C@@H](CCC(N)=O)C(=O)O)[C@@H](C)O)[C@@H](C)CC)C(C)C)[C@@H](C)CC | GIPR (Homo sapiens, UniProt P48546) | reporter gene, agonist, luciferase | – | – | 3e-06 |
| NC(N)=NCCC[C@H](NC(=O)[C@H](Cc1ccccc1)NC(=O)[C@@H]1CCCN1C(=O)[C@H](CO)NC(=O)[C@H](Cc1ccccc1)NC(=O)CNC(=O)[C@@H]1CCCN1C(=O)[C@@H]1CCCN1C(=O)[C@@H](N)CCCN=C(N)N)C(=O)O | Bradykinin receptor B2 (Bos taurus, UniProt F1MWK0) | calcium response, agonist, fura-2 | primary bovine aortic endothelial cells | – | 0.004 |
| CC(C)C[C@@H]1NC(=O)[C@H](Cc2ccc(O)cc2)NC(=O)[C@H](CO)NC(=O)[C@H](C)NC(=O)[C@@H](NC(=O)[C@@H]2CCCN2C(=O)[C@H](CC(N)=O)NC(=O)[C@H](Cc2ccc(O)cc2)NC(=O)[C@@H](N)CCCCN)CSC1=O | Accessory gene regulator protein C | – | – | – | 0.0289 |
| CC(C)C[C@@H]1NC(=O)[C@H](Cc2ccc(O)cc2)NC(=O)[C@H](CCCNC(=N)N)NC(=O)[C@H](C(C)C)NC(=O)[C@@H]2CCCN2C(=O)[C@H](Cc2ccccc2)NC(=O)[C@H](C)NC(=O)[C@H](CC(N)=O)NC(=O)[C@H](Cc2ccc(OS(=O)(=O)F)cc2)NC(=O)[C@@H](Cc2ccccc2)NC(=O)CSC[C@@H](C(=O)NCCOCCOCC(=O)NCCOCCOCC(=O)N[C@@H](CCCCN=[N+]=[N-])C(N)=O)NC(=O)[C@H](Cc2c[nH]c3ccccc23)NC(=O)[C@H](CCCNC(=N)N)NC(=O)[C@H](CCCCN)NC1=O | Nectin-4, extracellular domain (Homo sapiens, UniProt Q96NY8) | covalent labelling, in-gel fluorescence | – | 4 h, 37 °C | 33 ± 8 |
| OC1(c2ccc(Cl)cc2)CCN(Cc2c[nH]c3ccccc23)CC1 | DRD3 | cell growth or viability, thymidine uptake | – | – | > 10 |
| CC[C@H](C)[C@@H]1NC(=O)[C@H](Cc2ccccc2)NC(=O)[C@H](CCC(=O)O)NC(=O)[C@H](CCCNC(=N)N)NC(=O)[C@](C)(NC(=O)[C@H](CS)NC(=O)[C@H](CC(C)C)NC(=O)[C@H](CCCNC(=N)N)NC(=O)[C@@H](NC(=O)CNC(=O)[C@H](Cc2ccc(O)cc2)NC(=O)[C@@H]2CCCN2C(=O)[C@H](C)NC(=O)[C@H](C)NC(=O)[C@@H](N)CCCNC(=N)N)C(C)C)CCCC=CCCCCCC[C@@](C)(C(=O)N[C@H](C(=O)N[C@@H](Cc2ccccc2)C(=O)N[C@H](C(=O)N[C@@H](CS)C(=O)NCC(=O)NCC(=O)N[C@@H](CO)C(=O)N[C@@H](CCCNC(=N)N)C(=O)N[C@@H](Cc2c[nH]c3ccccc23)C(=O)O)[C@@H](C)O)[C@@H](C)CC)NC(=O)[C@H](C)NC(=O)[C@H](CCCNC(=N)N)NC1=O | RXFP3 | cAMP, agonist | – | – | 0.0167 |
| C[C@@H]1NC(=O)[C@H](CC(N)=O)NC(=O)[C@H](Cc2c[nH]c3ccccc23)NC(=O)[C@H](CCCNC(=N)N)NC(=O)[C@@H](Cc2ccccc2)NC(=O)[C@H](Cc2c[nH]cn2)NC(=O)[C@@H](NC(=O)[C@@H](N)Cc2ccc(O)cc2)CCCn2cc(nn2)-c2cccc(c2)-c2cn(nn2)CCC[C@@H](C(=O)N[C@@H](Cc2ccc(O)cc2)C(N)=O)NC(=O)[C@H](Cc2ccccc2)NC1=O | Melanocortin receptor 4 | agonist | – | – | 0.971 ± 0.213 |
| CC[C@H](C)[C@@H]1NC(=O)[C@H](C(C)C)NC(=O)[C@H](C)NC(=O)[C@H](CCCNC(=N)N)NC(=O)[C@H]([C@@H](C)CC)NC(=O)[C@](C)(NC(=O)[C@H](CCC(=O)O)NC(=O)[C@H](CCCNC(=N)N)NC(=O)CNC(=O)[C@H](CO)NC(=O)[C@H](CC(C)C)NC(=O)[C@H](CCCNC(=N)N)NC(=O)[C@@H](NC(=O)CNC(=O)[C@H](Cc2ccc(O)cc2)NC(=O)[C@@H]2CCCN2C(=O)[C@H](C)NC(=O)[C@H](C)NC(=O)[C@@H](N)CCCNC(=N)N)C(C)C)CCCC=CCCCCCC[C@@](C)(C(=O)N[C@@H](CO)C(=O)NCC(=O)NCC(=O)N[C@@H](CO)C(=O)N[C@@H](CCCNC(=N)N)C(=O)N[C@@H](Cc2c[nH]c3ccccc23)C(=O)O)NC(=O)[C@H](Cc2ccccc2)NC1=O | RXFP3 | cAMP, agonist | – | – | 0.00524 |
| Cc1cc(O)cc(C)c1CC(N)C(=O)NC1CCNc2c1cc(Cc1ccccc1)cc2C(F)(F)F (stereo not shown) | Oprd1 | GTPγS binding, agonist, radiometric | – | cell membranes | 0.05 |
| CC(C)C[C@H](NC(=O)[C@H](CCC(=O)O)NC(=O)[C@H](C)NC(=O)[C@H](CCC(=O)O)NC(=O)[C@H](CCC(=O)O)NC(=O)[C@H](Cc1c[nH]cn1)NC(=O)[C@H](CCCNC(=N)N)NC(=O)[C@H](CCC(=O)O)NC(=O)[C@H](CC(N)=O)NC(=O)[C@H](CCCCN)NC(=O)[C@H](CC(C)C)NC(=O)[C@H](CCCNC(=N)N)NC(=O)[C@H](CCC(N)=O)NC(=O)[C@H](CC(C)C)NC(=O)[C@H](CCC(=O)O)NC(=O)[C@H](C)NC(=O)[C@H](CC(=O)O)NC(=O)[C@H](C)NC(=O)[C@@H](NC(=O)[C@H](CC(C)C)NC(=O)[C@H](CCCCN)NC(=O)[C@H](CCC(=O)O)NC(=O)[C@@H](N)C(C)C)[C@@H](C)O)C(=O)N[C@@H](CCC(=O)O)C(=O)N[C@@H](CCCNC(=N)N)C(=O)N[C@@H](CC(C)C)C(=O)N[C@@H](CCCCN)C(=O)N[C@@H](CO)C(=O)N[C@@H](CCC(=O)O)C(=O)N[C@@H](Cc1ccc(O)cc1)C(=O)O | Plasminogen (PLG, Homo sapiens, UniProt P00747) | plasminogen activation, chromogenic substrate S-2251 | – | pH 7.4, with: catalytic streptokinase-plasmin complex, Glu-plasminogen 50 nM | 50.4 |
| CC(=O)N[C@@H](CCCNC(=N)N)C(=O)N[C@@H](Cc1ccc(O)cc1)C(=O)N[C@@H](CCCN/C(N)=N/C(=O)NCCCCN)C(=O)N[C@@H](CC(C)C)C(=O)N[C@@H](CCCNC(=N)N)C(=O)N[C@@H](Cc1ccc(O)cc1)C(N)=O | NPY4R (Homo sapiens, UniProt P50391) | β-arrestin 1 recruitment, agonist | HEK293T | – | 0.144 ± 0.028 |
| CC[C@H](C)[C@H](NC(=O)[C@H](CC(N)=O)NC(=O)[C@H](Cc1c[nH]cn1)NC(=O)[C@@H](NC(=O)[C@H](CCC(N)=O)NC(=O)[C@H](CCCNC(=N)N)NC(=O)[C@@H](NC(=O)[C@@H](N)CCC(=O)O)[C@@H](C)CC)[C@@H](C)O)C(=O)N[C@@H](Cc1ccccc1)C(=O)N[C@@H](CC(=O)O)C(=O)N[C@@H](CC(N)=O)C(=O)N[C@@H](Cc1ccccc1)C(=O)N[C@@H](Cc1ccccc1)C(=O)N[C@@H](CCCCN)C(=O)N[C@@H](CCCNC(=N)N)C(=O)N[C@@H](CCCNC(=N)N)C(=O)O | histidine kinase ComD | reporter gene, agonist | Streptococcus pneumoniae, TIGR4 comX::lacZ | 30 min, pH 7.3, 37 °C | > 1 |
| CC(C)C[C@@H]1NC(=O)[C@H](Cc2ccc(O)cc2)NC(=O)[C@H](CC(N)=O)NC(=O)[C@H](CO)NC(=O)[C@@H](NC(=O)[C@@H](NC(=O)[C@H](CC(N)=O)NC(=O)[C@H](Cc2ccc(O)cc2)NC(=O)[C@@H](N)CCCCN)C(C)C)CSC1=O | Accessory gene regulator protein C | – | – | – | > 2 |
| CC(=O)N[C@@H](CCCNC(=N)N)C(=O)N[C@@H](CCCNC(=N)N)C(=O)N[C@@H](C(=O)N1Cc2ccccc2C[C@H]1C(N)=O)[C@@H](c1ccccc1)c1c[nH]c2ccccc12 | Melanocortin receptor 4 | cAMP, agonist, AlphaScreen | – | – | > 100 |
| Nc1ncnc2c1ncn2C1OC(COP(=O)(O)OP(=O)(O)OCC2OC(O)C(O)C2O)C(O)C1O (stereo not shown) | TRPM2 (Nematostella vectensis, UniProt A7T1N0, Y264A) | channel activation, activator, inside-out patch clamp | – | Y264A mutant, currents not saturated, with: 125 µM Ca2+ and 2.5 µM PIP2 | 1870 ± 936 |
| CC[C@H](C)[C@H](NC(=O)[C@H](CC(N)=O)NC(=O)[C@H](Cc1ccccc1)NC(=O)[C@H](Cc1ccccc1)NC(=O)[C@@H](NC(=O)[C@H](CC(N)=O)NC(=O)[C@H](Cc1c[nH]cn1)NC(=O)[C@@H](NC(=O)[C@H](CCC(N)=O)NC(=O)[C@H](CCCNC(=N)N)NC(=O)[C@@H](NC(=O)[C@@H](N)CCC(=O)O)[C@@H](C)CC)[C@@H](C)O)[C@@H](C)CC)C(=O)N[C@@H](Cc1ccccc1)C(=O)N[C@@H](CCCCN)C(=O)N[C@@H](CCCNC(=N)N)C(=O)N[C@@H](CCCNC(=N)N)C(=O)O | histidine kinase ComD | reporter gene, agonist | Streptococcus pneumoniae, TIGR4 comX::lacZ | 30 min, pH 7.3, 37 °C | > 1 |
| CCc1cc(Cc2ccccc2)cc2c1NCCC2NC(=O)C(N)Cc1c(C)cc(O)cc1C (stereo not shown) | Oprd1 | GTPγS binding, agonist, radiometric | – | cell membranes | 0.032 |
| C[C@@H]1NC(=O)[C@H](CC(N)=O)N2C[C@H](Cc3c[nH]c4ccccc34)NC(=O)[C@@H](CSCC2=O)NC(=O)[C@H](CCCNC(=N)N)NC(=O)[C@@H](Cc2ccccc2)NC(=O)[C@H](Cc2c[nH]cn2)NC(=O)[C@@H](NC(=O)[C@@H](N)Cc2ccc(O)cc2)CSSC[C@@H](C(=O)N[C@@H](Cc2ccc(O)cc2)C(N)=O)NC(=O)[C@H](Cc2ccccc2)NC1=O | Melanocortin receptor 4 | reporter gene, agonist | – | – | 0.44 |
